Measurements collected from several papers.
Each line is one published result; not all experiments were run side by side.
Organism: Escherichia coli

Compound | assay | test system | conditions | scale | MIC
C/C(=N/NC(=N)N)c1nnn(-c2ccc(C#CC(C)(C)C)cc2)c1C | microbial growth, broth dilution | BW25113 |  |  | > 64 µg/mL
CSCC[C@H](NC(=O)[C@H](CCCNC(=N)N)NC(=O)[C@H](Cc1c[nH]c2ccccc12)NC(=O)[C@H](CCC(N)=O)NC(=O)[C@H](Cc1c[nH]c2ccccc12)NC(=O)[C@H](CCCNC(=N)N)NC(=O)[C@H](CCCNC(=N)N)NC(=O)[C@H](C)NC(=O)[C@H](CCCCN)NC(=O)[C@@H](N)Cc1ccccc1)C(=O)N[C@@H](CCCCN)C(=O)N[C@@H](CCCCN)C(=O)N[C@@H](CC(C)C)C(=O)NCC(=O)N[C@@H](C)C(=O)NCCCC[C@H](NC(=O)[C@H](C)NC(=O)CNC(=O)[C@H](CC(C)C)NC(=O)[C@H](CCCCN)NC(=O)[C@H](CCCCN)NC(=O)[C@H](CCSC)NC(=O)[C@H](CCCNC(=N)N)NC(=O)[C@H](Cc1c[nH]c2ccccc12)NC(=O)[C@H](CCC(N)=O)NC(=O)[C@H](Cc1c[nH]c2ccccc12)NC(=O)[C@H](CCCNC(=N)N)NC(=O)[C@H](CCCNC(=N)N)NC(=O)[C@H](C)NC(=O)[C@H](CCCCN)NC(=O)[C@@H](N)Cc1ccccc1)C(=O)NCCCCCC(N)=O | broth microdilution | ATCC 43827 | 24 h, 37 °C |  | 12 µM
CN1CCC(NCCC2(Cc3ccc(Cl)cc3)CCCCC2)CC1 |  | uropathogenic | 10 h |  | 100 µM
COc1ccc2ccc3c(c2c1)C=[N+]1C2CCCCC2[N+]2=Cc4cc(C(C)(C)C)ccc4[O][Au-]21[O]3.F[P-](F)(F)(F)(F)F (centres unmarked) | bacterial growth, broth microdilution | carbapenem-resistant clinical isolate | 24 h |  | > 20 µM
CCCCc1ccc(N2C(=O)/C(=N\NC(=N)N)c3cc(F)ccc32)cc1 | microbial growth, broth dilution |  | 18 h |  | 48 µg/mL
CC(C)CCCCC(=O)N[C@@H](CCN)C(=O)N[C@H](C(=O)N[C@@H](CCN)C(=O)N[C@H]1CCNC(=O)[C@H]([C@@H](C)O)NC(=O)[C@H](CCN)NC(=O)[C@H](CCN)NC(=O)[C@H](CC(C)C)NC(=O)[C@@H](Cc2ccccc2)NC(=O)[C@H](CCN)NC1=O)[C@@H](C)O | broth microdilution | W3110 | 37 °C |  | 0.25 µg/mL
O=C(CC1COC(=O)N1/N=C/c1ccc([N+](=O)[O-])o1)c1ccccc1 (centres unmarked) | microbial growth, broth dilution | ATCC25922 | 18 h |  | > 50 µg/mL
FC(F)(F)c1cc(CSc2nnc(C34CC5CC(CC(C5)C3)C4)n2-c2ccccc2)cc(C(F)(F)F)c1 | microbial growth, broth dilution | IFO3301 | 24 h |  | 2 µg/mL
COc1ccc(-c2csc(N/N=C(\C)c3ccc4c(c3)sc3nc(=O)c(C#N)cn34)n2)cc1 | broth microdilution |  |  |  | < 39 µg/mL
CO[C@H]1[C@H](O)[C@@H](N)[C@@H](O[C@H]2[C@H](O[C@@H]3O[C@H](CO)[C@@H](O[C@H]4O[C@@H](CN)[C@@H](O)[C@H](O)[C@H]4N)[C@H]3O)[C@@H](O)[C@H](N)C[C@@H]2N)O[C@@H]1CO | broth microdilution | clinical isolate AG 003 |  |  | ≥ 128 µg/mL
COc1ccc2ccc3c(c2c1)C=[N+]1C2CCCCC2[N+]2=Cc4ccc(C)cc4[O][Au-]21[O]3.F[P-](F)(F)(F)(F)F (centres unmarked) | bacterial growth, broth microdilution | carbapenem-resistant clinical isolate | 24 h |  | > 20 µM
NC[C@@H]1O[C@H](O[C@H]2[C@@H](O)[C@H](O[C@@H]3[C@@H](O)[C@H](N)C[C@H](N)[C@H]3O[C@H]3O[C@H](CO)[C@@H](OCC(O)CO)[C@H](O)[C@H]3N)O[C@@H]2CO)[C@H](N)[C@@H](O)[C@@H]1O (some centres unmarked) | broth microdilution | clinical isolate AG 055 |  |  | 16 to 32 µg/mL
CC(CCCOC(=O)CCC[N+](C)(C)C)C1CCC2C3C(OC(=O)CCC[N+](C)(C)C)CC4CC(OC(=O)CCC[N+](C)(C)C)CCC4(C)C3CC(OC(=O)CCC[N+](C)(C)C)C12C (centres unmarked) | microbial growth, broth dilution | ATCC25922 | 16 h |  | 62.5 µg/mL
COc1ccc2ccc3c(c2c1)C=[N+]1C2CCCCC2[N+]2=Cc4cccc(C)c4[O][Au-]21[O]3.F[P-](F)(F)(F)(F)F (centres unmarked) | bacterial growth, broth microdilution | carbapenem-resistant clinical isolate | 24 h |  | 20 µM
C[n+]1ccc(/C=C2\Sc3ccccc3N2CCCN2CCCC2)c2ccccc21 | microbial growth, broth dilution | ATCC25922 |  |  | 4 µg/mL
NC[C@@H]1O[C@H](O[C@H]2[C@@H](O)[C@H](O[C@@H]3[C@@H](O)[C@H](N)C[C@H](N)[C@H]3O[C@H]3O[C@H](CO)[C@@H](OCCO)[C@H](O)[C@H]3N)O[C@@H]2CO)[C@H](N)[C@@H](O)[C@@H]1O | broth microdilution | clinical isolate AG 001 |  |  | 32 to 64 µg/mL
CCn1cc[n+](CC)[c]1[Au-]([Cl])([Cl])[Cl] | broth dilution | DSM 1116 | 20 h, 37 °C |  | 18.7 µM
COc1c(CC=C(C)C)c(O)cc2c1-c1oc3c(CC=C(C)C)c(O)ccc3c1CO2 |  | TISTR 780 |  |  | 128 µg/mL
Cc1[nH]c(=O)c(CNC(=O)c2ccc(C(F)(F)F)nc2)c2c1CCCC2 | agar double dilution | ESBL clinical isolate |  |  | > 128 µg/mL

Compound | assay | test system | conditions | scale | MIC
CCCCCCCCCCCCCCN1C(=O)/C(=N\NC(=N)N)c2cc(C)ccc21 | microbial growth, broth dilution |  | 18 h |  | > 192 µg/mL
COc1cc(OC)c2c(c1)C(=O)c1cc3oc(=O)cc(-c4ccc(Cl)cc4)c3c(O)c1C2=O | microbial growth |  |  |  | 32 µg/mL
COc1ccc2ccc3c(c2c1)C=[N+]1C2CCCCC2[N+]2=Cc4cccc(F)c4[O][Au-]21[O]3.F[P-](F)(F)(F)(F)F (centres unmarked) | bacterial growth, broth microdilution | carbapenem-resistant | 24 h |  | 20 µM
COCO[C@H]1[C@H](O)[C@@H](N)[C@@H](O[C@H]2[C@H](O[C@@H]3O[C@H](CO)[C@@H](O[C@H]4O[C@@H](CN)[C@@H](O)[C@H](O)[C@H]4N)[C@H]3O)[C@@H](O)[C@H](N)C[C@@H]2N)O[C@@H]1CO | broth microdilution | clinical isolate AG 055 |  |  | 64 to 128 µg/mL
COc1ccc2ccc3c(c2c1)C=[N+]1C2CCCCC2[N+]2=Cc4ccc(-c5ccccc5)cc4[O][Au-]21[O]3.F[P-](F)(F)(F)(F)F (centres unmarked) | bacterial growth, broth microdilution | carbapenem-resistant clinical isolate | 24 h |  | > 20 µM
CC(C)C[C@H](NC(=O)[C@H](CC(C)C)NC(=O)[C@H](CCCCN)NC(=O)[C@H](CC(C)C)NC(=O)[C@H](CC(C)C)NC(=O)[C@H](CCCCN)NC(=O)[C@H](CCCCN)NC(=O)[C@H](CC(C)C)NC(=O)[C@H](CC(C)C)NC(=O)[C@H](CCCCN)NC(=O)[C@H](CCCCN)NC(=O)[C@H](CC(C)C)NC(=O)[C@H](CC(C)C)NC(=O)[C@H](CCCCN)NC(=O)[C@@H](N)CC(C)C)C(N)=O |  | ATCC 8937, RPMI medium | 24 h, 37 °C |  | 3.7 µM
CC(C)=CCc1c(O)ccc2c1O[C@H]1c3cc4c(cc3OC[C@@H]21)OC(C)(C)C=C4 |  | TISTR 780 |  |  | 128 µg/mL
CCN(CC)CCCN1/C(=C/c2cc[n+](C)c3ccccc23)Sc2ccccc21 | microbial growth, broth dilution | ATCC 8739, ATCC8739 |  |  | 8 µg/mL
O=C1c2ccccc2C(=O)c2c1ccc1c2C(C(=O)Nc2ccccc2Cl)C(=O)C1c1ccccc1 (centres unmarked) | microbial growth |  |  |  | 64 µg/mL
O=C1OCC(SCc2ccccc2)N1/N=C/c1ccc([N+](=O)[O-])o1 (centres unmarked) | microbial growth, broth dilution | ATCC25922 | 18 h |  | > 50 µg/mL
CC(=O)[O][Ag]=[c]1n(C)ccn1CC(O)c1ccccc1 (centres unmarked) | broth dilution | ATCC 25922 | 18 h, 37 °C |  | 10 µg/mL
C=CCC1COC(=O)N1/N=C/c1ccc([N+](=O)[O-])o1 (centres unmarked) | microbial growth, broth dilution | ATCC25922 | 18 h |  | > 50 µg/mL
O=[N+]([O-])c1cccc(S(=O)(=O)NC[C@@H](O)[C@@H]2CCc3cc(F)ccc3O2)c1 | microbial growth |  |  |  | 12.1 µg/mL
CC1OCC2OC(OC3C(N)CC(N)C(O)C3OC3OC(CO)C(OC4OC(CN)C(O)C(O)C4N)C3O)C(N)C(O)C2O1 (centres unmarked) | broth microdilution | clinical isolate AG 055 |  |  | 64 µg/mL
c1ccc(CN2CCOCCOCCN(CCCCCCCCCCN3CCOCCOCCN(CCCCCCCCCCN4CCOCCOCCN(Cc5ccccc5)CCOCCOCC4)CCOCCOCC3)CCOCCOCC2)cc1 | microbial growth |  |  |  | 13 µM
O=C(NCCNCCO)c1cn(Cc2ccc(F)cc2)c2cc(Cl)c(OCc3ccc(C(F)(F)F)cc3)cc2c1=O |  | ATCC 25922 |  | ≥80% growth inhibition | < 0.25 µg/mL
N=C(N)NCCC[C@@H]1NC(=O)[C@H](CCCNC(=N)N)NC(=O)[C@H](CCCNC(=N)N)NC(=O)[C@H](Cc2c[nH]c3ccccc23)NC(=O)[C@H](Cc2c[nH]c3ccccc23)NC(=O)[C@H](Cc2c[nH]c3ccccc23)NC(=O)[C@H](Cc2c[nH]c3ccccc23)NC(=O)[C@H](CCCNC(=N)N)NC1=O | broth microdilution | ATCC 35218 |  |  | 16 µg/mL
O=C1c2ccccc2C(=O)c2c1ccc1c2C(C(=O)Nc2ccc(Cl)cc2)C(=O)C1c1ccccc1 (centres unmarked) | microbial growth |  |  |  | > 100 µg/mL
C/C(=N\NC(N)=S)c1ccc2c(c1)sc1nc(=O)c(C#N)cn12 | microbial growth, broth dilution |  |  |  | < 44 µg/mL

Excerpt of the above:
Compound | assay | test system | conditions | scale | MIC
COc1ccc2ccc3c(c2c1)C=[N+]1C2CCCCC2[N+]2=Cc4ccc(C)cc4[O][Au-]21[O]3.F[P-](F)(F)(F)(F)F (centres unmarked) | bacterial growth, broth microdilution | carbapenem-resistant clinical isolate | 24 h |  | > 20 µM
NC[C@@H]1O[C@H](O[C@H]2[C@@H](O)[C@H](O[C@@H]3[C@@H](O)[C@H](N)C[C@H](N)[C@H]3O[C@H]3O[C@H](CO)[C@@H](OCC(O)CO)[C@H](O)[C@H]3N)O[C@@H]2CO)[C@H](N)[C@@H](O)[C@@H]1O (some centres unmarked) | broth microdilution | clinical isolate AG 055 |  |  | 16 to 32 µg/mL
CC(CCCOC(=O)CCC[N+](C)(C)C)C1CCC2C3C(OC(=O)CCC[N+](C)(C)C)CC4CC(OC(=O)CCC[N+](C)(C)C)CCC4(C)C3CC(OC(=O)CCC[N+](C)(C)C)C12C (centres unmarked) | microbial growth, broth dilution | ATCC25922 | 16 h |  | 62.5 µg/mL
COc1ccc2ccc3c(c2c1)C=[N+]1C2CCCCC2[N+]2=Cc4cccc(C)c4[O][Au-]21[O]3.F[P-](F)(F)(F)(F)F (centres unmarked) | bacterial growth, broth microdilution | carbapenem-resistant clinical isolate | 24 h |  | 20 µM
